Experimental data gathered from unrelated publications.
± marks the error that the study gave.

With `C[C@H](O)[C@@H](NC(=O)[C@H]1CCCN1C(=O)[C@@H](CCCCN)NC(=O)[C@@H](CO)NC(=O)[C@@H](Cc1ccc(O)cc1)NC(=O)[C@@H](CC(N)=O)NC(=O)CCOCCOCCOCCNC(=O)CN1CCN(CC(=O)O)CCN(CC(=O)O)CCN(CC(=O)O)CC1)C(=O)N[C@H](CC(=O)O)C(=O)N[C@H](CCCNC(=N)N)C(=O)N[C@H](CCC(N)=O)C(=O)N[C@H](Cc1ccc(O)cc1)C(=O)N[C@H](Cc1c[nH]cn1)C(=O)N[C@H](Cc1ccccc1)C(N)=O` [gallium-68 labelled] the tissue uptake was 0.11 ± 0.08 %ID/g (BALB/c nude mice U-87 MG tumour, brain; intravenous, 1.85 MBq, 0.5 h, radiolabelled).
The tissue uptake of `CC[C@H](C)[C@H](NC(=O)[C@H](CCCCN)NC(=O)CNC(=O)[C@H](CC(C)C)NC(=O)[C@H](Cc1ccccc1)NC(=O)[C@H](CCCCN)NC(=O)[C@H](CO)NC(=O)[C@H](Cc1ccccc1)NC(=O)[C@H](Cc1c[nH]c2ccccc12)NC(=O)[C@H](CCC(N)=O)NC(=O)[C@@H](NC(=O)[C@H](Cc1ccccc1)NC(=O)CCCCCNC(=O)CN1CCN(CC(=O)O)CCN(CC(=O)O)CCN(CC(=O)O)CC1)C(C)C)C(=O)N[C@@H](CCC(=O)O)C(=O)N1CCC[C@H]1C(=O)N[C@@H](CC(=O)O)C(=O)N[C@H](C(=O)N[C@@H](CO)C(=O)N[C@@H](CCC(N)=O)C(=O)N[C@H](C(=O)N[C@@H](CCC(N)=O)C(=O)N[C@@H](CC(=O)O)C(=O)N1CCC[C@H]1C(=O)N[C@@H](CC(N)=O)C(=O)N[C@@H](CC(=O)O)C(=O)N[C@@H](CCC(N)=O)C(=O)N[C@@H](Cc1ccc(O)cc1)C(=O)N[C@@H](CCC(=O)O)C(=O)N1CCC[C@H]1C(=O)N[C@@H](Cc1ccccc1)C(=O)O)C(C)C)C(C)C` [copper-64 labelled] is reported as 2.81 ± 0.2 %ID/g (C57BL/6 mice, large intestine; together with: LPS 0.1 mg/kg intratracheal).
With `CCCC[C@H]1C(=O)N(C)[C@@H](CCCC)C(=O)N[C@@H](CCCNC(=O)CN2CCN(CC(=O)O)CCN(CC(=O)O)CCN(CC(=O)O)CC2)C(=O)N[C@H](C(=O)NCC(N)=O)CSCC(=O)N[C@@H](Cc2ccc(O)cc2)C(=O)N(C)[C@@H](C)C(=O)N[C@@H](CC(N)=O)C(=O)N2CCC[C@H]2C(=O)N[C@@H](Cc2c[nH]cn2)C(=O)N[C@@H](CC(C)C)C(=O)N(C)CC(=O)N[C@@H](Cc2c[nH]c3ccccc23)C(=O)N[C@@H](CO)C(=O)N[C@@H](Cc2c[nH]c3ccccc23)C(=O)N1C` [gallium-68 labelled] the tissue uptake was 0.89 ± 0.05 %ID/g (NOD/SCID mice with CHO-hPD-L1 xenograft, muscle; 30 min post injection).
The tissue uptake of `CC[C@H](C)[C@H](NC(=O)[C@H](CCCNC(=N)N)NC(=O)[C@H](CCCCN)NC(=O)[C@H](Cc1ccc(O)cc1)NC(=O)[C@H](CC(=O)O)NC(=O)[C@H](C)NC(=O)CNC(=O)CCOCCOCCOCCNC(=O)CN1CCN(CC(=O)O)CCN(CC(=O)O)CCN(CC(=O)O)CC1)C(=O)N[C@H](C(=O)N[C@@H](CC(C)C)C(=O)N[C@@H](CCCCN)C(=O)N[C@H](C(=O)N[C@@H](CC(N)=O)C(N)=O)C(C)C)[C@@H](C)O` [copper-64 labelled] is reported as 11.3 ± 1.95 %ID/g (ex vivo gamma counting; C57BL/6J male mice, B16-F10 tumour, kidney; intravenous, 1.85 MBq, 40 min).
The tissue uptake of `CC[C@H](C)[C@H](NC(=O)[C@@H](Cc1c[nH]c2ccccc12)NC(=O)[C@@H]1CCCN1C(=O)[C@H](CCCCN)NC(=O)[C@H](CCCCN)NC(=O)CCNC(=O)CCNC(=O)CN1CCN(CC(=O)O)CCN(CC(=O)O)CCN(CC(=O)O)CC1)C(=O)N[C@@H](C[Si](C)(C)C)C(=O)O` [gallium-68 labelled] is reported as 0.61 ± 0.3 %ID/g (ex vivo biodistribution; nude mice, HT-29 xenograft, bone; 90 min, together with: levocabastine 0.5 µmol).
For `CC(C)C[C@@H](NC(=O)[C@@H](CCCNC(=N)N)NC(=O)[C@@H](Cc1c[nH]cn1)NC(=O)[C@@H](Cc1c[nH]c2ccccc12)NC(=O)[C@@H](Cc1c[nH]cn1)NC(=O)[C@@H](Cc1ccccc1)NC(=O)[C@H](NC(=O)[C@@H](Cc1ccc(O)cc1)NC(=O)CNC(=O)CNC(=O)CCOCCOCCOCCNC(=O)CN1CCN(CC(=O)O)CCN(CC(=O)O)CC1)[C@H](C)O)C(=O)N[C@H](CC(N)=O)C(=O)N1CCC[C@@H]1C(=O)O` [gallium-68 labelled], the tissue uptake was 0.73 ± 0.23 %ID/g (C57BL/6 mice, male, brain; intravenous, 1.85 MBq, 60 min, together with: blocking antibody).
For `CC[C@H](C)[C@H](NC(=O)[C@H](CCCNC(=N)N)NC(=O)[C@H](CCCCN)NC(=O)[C@H](Cc1ccc(O)cc1)NC(=O)[C@H](CC(=O)O)NC(=O)[C@H](C)NC(=O)CNC(=O)CCOCCOCCOCCNC(=O)CN1CCN(CC(=O)O)CCN(CC(=O)O)CCN(CC(=O)O)CC1)C(=O)N[C@H](C(=O)N[C@H](C(=O)N[C@@H](CCCCN)C(=O)N[C@H](C(=O)N[C@@H](CC(N)=O)C(N)=O)C(C)C)C(C)C)[C@@H](C)O` [copper-64 labelled], the tissue uptake was 0.609 ± 0.157 %ID/g (ex vivo gamma counting; C57BL/6J male mice, B16-F10 tumour, thymus; intravenous, 1.85 MBq, 100 min).
With `CSCC[C@H](NC(=O)CNC(=O)[C@H](CCCCN)NC(=O)[C@H](CC(C)C)NC(=O)[C@@H]1CCCN1C(=O)[C@H](CO)NC(=O)[C@H](Cc1c[nH]cn1)NC(=O)[C@H](Cc1c[nH]c2ccccc12)NC(=O)[C@H](CCCNC(=N)N)NC(=O)[C@H](CC(C)C)NC(=O)[C@H](CCCNC(=N)N)NC(=O)[C@H](Cc1c[nH]c2ccccc12)NC(=O)[C@H](CS)NC(=O)CCCCCNC(=O)CN1CCN(CC(=O)O)CCN(CC(=O)O)CCN(CC(=O)O)CC1)C(=O)O` [copper-64 labelled] the tissue uptake was 1.2 %ID/g (ex vivo biodistribution; male C57BL/6J mice, stomach; intravenous, 1.85 MBq, 18 h, B16-F10 tumour-bearing).

Excerpt of the above:
The tissue uptake of `CC[C@H](C)[C@H](NC(=O)[C@H](CCCCN)NC(=O)CNC(=O)[C@H](CC(C)C)NC(=O)[C@H](Cc1ccccc1)NC(=O)[C@H](CCCCN)NC(=O)[C@H](CO)NC(=O)[C@H](Cc1ccccc1)NC(=O)[C@H](Cc1c[nH]c2ccccc12)NC(=O)[C@H](CCC(N)=O)NC(=O)[C@@H](NC(=O)[C@H](Cc1ccccc1)NC(=O)CCCCCNC(=O)CN1CCN(CC(=O)O)CCN(CC(=O)O)CCN(CC(=O)O)CC1)C(C)C)C(=O)N[C@@H](CCC(=O)O)C(=O)N1CCC[C@H]1C(=O)N[C@@H](CC(=O)O)C(=O)N[C@H](C(=O)N[C@@H](CO)C(=O)N[C@@H](CCC(N)=O)C(=O)N[C@H](C(=O)N[C@@H](CCC(N)=O)C(=O)N[C@@H](CC(=O)O)C(=O)N1CCC[C@H]1C(=O)N[C@@H](CC(N)=O)C(=O)N[C@@H](CC(=O)O)C(=O)N[C@@H](CCC(N)=O)C(=O)N[C@@H](Cc1ccc(O)cc1)C(=O)N[C@@H](CCC(=O)O)C(=O)N1CCC[C@H]1C(=O)N[C@@H](Cc1ccccc1)C(=O)O)C(C)C)C(C)C` [copper-64 labelled] is reported as 2.81 ± 0.2 %ID/g (C57BL/6 mice, large intestine; together with: LPS 0.1 mg/kg intratracheal).
